Measured values of several laboratories.
Each numbered part is a random draw from the data of one study; scales do not carry over between parts. “And” joins repeats or separate records; there may be more than shown.
UniProt P17948, sequence (whole entry, looked up): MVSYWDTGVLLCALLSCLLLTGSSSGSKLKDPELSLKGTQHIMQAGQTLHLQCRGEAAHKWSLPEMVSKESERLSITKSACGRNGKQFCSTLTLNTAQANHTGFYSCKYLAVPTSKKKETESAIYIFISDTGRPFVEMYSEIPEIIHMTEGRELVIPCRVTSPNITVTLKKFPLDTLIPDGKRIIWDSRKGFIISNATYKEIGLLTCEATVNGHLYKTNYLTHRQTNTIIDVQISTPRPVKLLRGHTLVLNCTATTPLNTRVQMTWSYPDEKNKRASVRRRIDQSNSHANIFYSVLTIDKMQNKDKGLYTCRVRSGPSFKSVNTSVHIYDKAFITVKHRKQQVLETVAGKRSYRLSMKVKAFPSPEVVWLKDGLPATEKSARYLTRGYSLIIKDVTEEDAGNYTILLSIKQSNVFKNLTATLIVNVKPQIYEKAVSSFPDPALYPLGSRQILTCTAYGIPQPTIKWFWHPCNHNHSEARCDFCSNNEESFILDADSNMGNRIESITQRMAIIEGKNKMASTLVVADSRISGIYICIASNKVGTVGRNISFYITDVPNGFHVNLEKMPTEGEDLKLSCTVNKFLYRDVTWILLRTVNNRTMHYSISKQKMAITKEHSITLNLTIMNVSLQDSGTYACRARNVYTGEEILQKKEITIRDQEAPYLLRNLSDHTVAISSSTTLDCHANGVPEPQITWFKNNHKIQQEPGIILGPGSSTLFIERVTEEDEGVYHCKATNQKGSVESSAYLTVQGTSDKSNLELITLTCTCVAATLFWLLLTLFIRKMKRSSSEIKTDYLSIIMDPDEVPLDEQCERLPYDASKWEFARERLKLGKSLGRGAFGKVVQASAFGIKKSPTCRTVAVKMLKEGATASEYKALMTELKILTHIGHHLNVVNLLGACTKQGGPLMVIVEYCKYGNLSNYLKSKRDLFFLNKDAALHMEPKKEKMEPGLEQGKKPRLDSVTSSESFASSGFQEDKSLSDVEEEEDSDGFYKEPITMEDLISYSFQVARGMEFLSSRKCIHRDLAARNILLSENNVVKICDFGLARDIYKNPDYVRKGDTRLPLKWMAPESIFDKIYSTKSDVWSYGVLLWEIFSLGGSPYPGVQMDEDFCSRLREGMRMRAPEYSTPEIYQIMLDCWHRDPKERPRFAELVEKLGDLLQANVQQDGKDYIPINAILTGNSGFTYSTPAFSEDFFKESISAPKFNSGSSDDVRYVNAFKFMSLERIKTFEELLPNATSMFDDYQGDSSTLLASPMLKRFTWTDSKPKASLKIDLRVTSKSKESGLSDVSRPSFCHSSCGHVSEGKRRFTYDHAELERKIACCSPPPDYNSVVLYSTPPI
UniProt P54753, sequence (whole entry, looked up): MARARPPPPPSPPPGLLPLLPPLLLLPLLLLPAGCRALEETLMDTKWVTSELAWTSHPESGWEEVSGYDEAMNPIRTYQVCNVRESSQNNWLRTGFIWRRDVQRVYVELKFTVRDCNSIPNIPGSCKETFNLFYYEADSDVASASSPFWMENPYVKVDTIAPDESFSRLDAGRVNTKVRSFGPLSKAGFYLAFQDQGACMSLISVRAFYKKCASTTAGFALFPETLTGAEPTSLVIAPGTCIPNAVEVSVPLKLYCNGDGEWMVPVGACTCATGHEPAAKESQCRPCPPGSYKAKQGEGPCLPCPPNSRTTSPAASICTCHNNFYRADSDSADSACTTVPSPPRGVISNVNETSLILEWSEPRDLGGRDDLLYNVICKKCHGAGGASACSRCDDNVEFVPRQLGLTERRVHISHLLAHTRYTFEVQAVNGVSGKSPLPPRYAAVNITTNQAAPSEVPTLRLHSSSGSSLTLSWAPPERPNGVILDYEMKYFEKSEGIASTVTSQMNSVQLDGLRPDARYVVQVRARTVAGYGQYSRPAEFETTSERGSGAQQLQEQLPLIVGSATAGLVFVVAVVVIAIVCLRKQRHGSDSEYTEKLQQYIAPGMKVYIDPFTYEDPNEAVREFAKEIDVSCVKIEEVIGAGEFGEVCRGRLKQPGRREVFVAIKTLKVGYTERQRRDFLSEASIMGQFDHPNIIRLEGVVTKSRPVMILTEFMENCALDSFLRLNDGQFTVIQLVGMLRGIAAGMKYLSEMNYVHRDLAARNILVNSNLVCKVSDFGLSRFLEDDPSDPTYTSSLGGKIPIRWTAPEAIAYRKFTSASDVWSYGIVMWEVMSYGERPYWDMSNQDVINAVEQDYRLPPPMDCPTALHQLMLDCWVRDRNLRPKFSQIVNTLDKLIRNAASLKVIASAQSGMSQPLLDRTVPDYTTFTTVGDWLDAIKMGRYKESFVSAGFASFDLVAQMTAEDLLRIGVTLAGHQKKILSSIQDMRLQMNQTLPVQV
UniProt P23458, sequence (whole entry, looked up): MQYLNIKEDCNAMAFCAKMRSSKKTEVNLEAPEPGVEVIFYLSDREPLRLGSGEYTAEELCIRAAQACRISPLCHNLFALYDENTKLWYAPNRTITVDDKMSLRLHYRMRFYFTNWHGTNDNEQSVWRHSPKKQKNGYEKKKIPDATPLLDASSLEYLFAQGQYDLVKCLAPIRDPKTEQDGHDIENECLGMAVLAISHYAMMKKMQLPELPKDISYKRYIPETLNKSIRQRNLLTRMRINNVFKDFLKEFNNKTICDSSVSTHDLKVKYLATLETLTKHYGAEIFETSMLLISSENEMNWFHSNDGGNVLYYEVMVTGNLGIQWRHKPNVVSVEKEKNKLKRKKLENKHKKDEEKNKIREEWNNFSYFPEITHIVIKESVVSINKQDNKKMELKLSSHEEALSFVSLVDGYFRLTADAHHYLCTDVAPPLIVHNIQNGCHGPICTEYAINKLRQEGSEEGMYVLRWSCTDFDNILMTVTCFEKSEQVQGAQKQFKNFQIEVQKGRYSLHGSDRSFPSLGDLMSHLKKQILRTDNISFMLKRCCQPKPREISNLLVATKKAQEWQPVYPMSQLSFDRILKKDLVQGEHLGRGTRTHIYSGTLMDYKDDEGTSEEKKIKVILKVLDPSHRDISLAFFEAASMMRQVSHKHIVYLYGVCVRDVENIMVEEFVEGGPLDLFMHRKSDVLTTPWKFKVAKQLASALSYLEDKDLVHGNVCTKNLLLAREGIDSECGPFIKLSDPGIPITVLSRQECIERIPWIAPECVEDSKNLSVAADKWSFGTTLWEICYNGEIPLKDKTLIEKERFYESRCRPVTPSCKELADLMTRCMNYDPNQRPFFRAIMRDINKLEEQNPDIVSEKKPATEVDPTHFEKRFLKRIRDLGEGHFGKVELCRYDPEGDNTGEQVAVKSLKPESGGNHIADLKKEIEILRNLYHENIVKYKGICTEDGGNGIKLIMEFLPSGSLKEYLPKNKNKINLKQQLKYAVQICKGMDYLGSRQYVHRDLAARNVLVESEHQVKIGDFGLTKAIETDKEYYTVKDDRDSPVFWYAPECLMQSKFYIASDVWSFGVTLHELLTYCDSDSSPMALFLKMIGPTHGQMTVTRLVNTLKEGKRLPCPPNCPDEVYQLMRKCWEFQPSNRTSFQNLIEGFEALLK
UniProt O60674, sequence (whole entry, looked up): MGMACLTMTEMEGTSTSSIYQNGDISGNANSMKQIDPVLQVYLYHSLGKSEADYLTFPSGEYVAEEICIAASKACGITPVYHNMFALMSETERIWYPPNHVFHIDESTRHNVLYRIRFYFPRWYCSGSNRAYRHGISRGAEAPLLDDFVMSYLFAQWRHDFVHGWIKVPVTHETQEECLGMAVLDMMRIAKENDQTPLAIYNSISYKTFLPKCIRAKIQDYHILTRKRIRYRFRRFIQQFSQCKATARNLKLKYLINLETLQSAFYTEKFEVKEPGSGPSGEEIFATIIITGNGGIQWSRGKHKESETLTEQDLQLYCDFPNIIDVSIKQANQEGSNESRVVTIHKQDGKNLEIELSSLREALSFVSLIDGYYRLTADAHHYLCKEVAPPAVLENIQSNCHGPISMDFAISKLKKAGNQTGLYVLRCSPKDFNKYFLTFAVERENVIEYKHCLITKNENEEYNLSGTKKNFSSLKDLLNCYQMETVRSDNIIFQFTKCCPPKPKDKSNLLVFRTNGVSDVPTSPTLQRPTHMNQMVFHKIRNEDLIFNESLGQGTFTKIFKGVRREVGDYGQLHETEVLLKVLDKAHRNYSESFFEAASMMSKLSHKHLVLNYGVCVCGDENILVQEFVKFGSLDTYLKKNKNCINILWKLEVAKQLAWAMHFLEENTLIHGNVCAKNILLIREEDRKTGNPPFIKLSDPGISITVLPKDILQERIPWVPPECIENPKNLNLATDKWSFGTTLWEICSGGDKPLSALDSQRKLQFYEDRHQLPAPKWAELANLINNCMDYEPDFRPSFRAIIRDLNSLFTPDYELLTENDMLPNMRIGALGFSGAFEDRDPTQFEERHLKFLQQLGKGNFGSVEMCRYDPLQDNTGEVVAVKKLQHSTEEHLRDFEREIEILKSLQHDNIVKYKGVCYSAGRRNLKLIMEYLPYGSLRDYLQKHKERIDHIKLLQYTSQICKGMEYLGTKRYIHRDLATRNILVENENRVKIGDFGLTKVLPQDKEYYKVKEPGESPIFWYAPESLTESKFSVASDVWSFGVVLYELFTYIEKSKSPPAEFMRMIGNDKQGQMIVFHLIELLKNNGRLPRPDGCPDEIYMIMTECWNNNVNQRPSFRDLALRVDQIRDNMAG
UniProt Q8N5S9, sequence (whole entry, looked up): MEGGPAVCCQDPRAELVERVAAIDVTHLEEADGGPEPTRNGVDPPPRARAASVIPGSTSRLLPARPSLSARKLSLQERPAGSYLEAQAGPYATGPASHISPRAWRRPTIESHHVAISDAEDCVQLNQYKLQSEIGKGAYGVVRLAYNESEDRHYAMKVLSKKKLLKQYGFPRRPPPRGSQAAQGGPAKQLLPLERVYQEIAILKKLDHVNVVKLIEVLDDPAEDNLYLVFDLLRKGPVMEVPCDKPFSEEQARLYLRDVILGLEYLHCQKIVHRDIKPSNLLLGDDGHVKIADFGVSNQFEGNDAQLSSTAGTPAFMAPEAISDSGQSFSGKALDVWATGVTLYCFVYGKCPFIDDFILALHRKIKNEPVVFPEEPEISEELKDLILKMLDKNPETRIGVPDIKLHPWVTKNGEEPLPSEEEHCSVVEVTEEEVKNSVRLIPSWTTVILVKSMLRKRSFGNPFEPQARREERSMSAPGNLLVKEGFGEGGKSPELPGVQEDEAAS

Set 1 — host: human; sample: microsomes or S9; tested at: 2 µM; time: 0.5 h
Structure (SMILES)	remaining compound [%]
COc1ccc(F)cc1-n1c(=O)[nH]c2c(c1=O)CCC2	80.3
Cc1nnc2n1CCC(N(C)S(=O)(=O)c1cn(C)cn1)CC2 (stereo not drawn)	70
CC(C)COc1cc(=O)n2c(c1C(=O)NC1CCN(C)CC1)CCCCC2	> 99
COC(=O)c1ccccc1NC(=O)c1c(OC)cc(=O)n2c1CCCC2	40.7
CC(C)N(C(=O)CO/C(=C(/c1ccccc1)S(=O)(=O)c1ccccc1)c1ccccc1)c1ccccc1	60.7

Set 2 — technique: two-hybrid; reference: out of 4 tests; reading: higher = firmer interaction
Partner: ARF16 570-670 (Arabidopsis thaliana, UniProt Q93YR9)
B1: ARF8 699-811 (Arabidopsis thaliana, UniProt Q9FGV1); chain NSSNQTKNFVKVYKSGSVGRSLDISRFSSYHELREELGKMFAIEGLLEDPLRSGWQLVFVDKENDILLLGDDPWESFVNNVWYIKILSPEDVHQMGDHGEGSGGLFPQNPTHL
B2: IAA29 (Arabidopsis thaliana, UniProt Q93WC4); chain MELDLGLSLSPHKSSKLGFNFDLNKHCAIEGAASCLGTEKLRFEATFGLGNVEENCYMPKQRLFALNGQPNEEDEDPLESESSIVYDDEEENSEVVGWPPVKTCMIKYGSYHHRHIRNHHHCPYHHRGRRITAMNNNISNPTTATVGSSSSSSISSRSSMYVKVKMDGVAIARKVDIKLFNSYESLTNSLITMFTEYEDCDREDTNYTFTFQGKEGDWLLRGDVTWKIFAESVHRISIIRDRPCAYTRCLF
B3: ARF12 500-593 (Arabidopsis thaliana, UniProt Q9XID4); chain TEIQNKQFSSSRTCTKVQMQGVTIGRAVDLSVLNGYDQLILELEKLFDIKGQLQTRNQWEIAFTDSDEDKMLVGDDPWPEFCNMVKKIFIQKRR
B4: ARF2 727-859 (Arabidopsis thaliana, UniProt Q94JM3); chain TKTNSSRSCTKVHKQGIALGRSVDLSKFQNYEELVAELDRLFEFNGELMAPKKDWLIVYTDEENDMMLVGDDPWQEFCCMVRKIFIYTKEEVRKMNPGTLSCRSEEEAVVGEGSDAKDAKSASNPSLSSAGNS
B5: IAA26 (Arabidopsis thaliana, UniProt Q8LAL2); chain MEGCPRNREIGPKLLDLIPQGRKWYQEDKNNTDQEKKLELRLGPPGGDEEDHSAIKKKNTEIRNIKKETEDKSFHCFNGNHFSPSNKTTSVPHISQKRTAPGPVVGWPPVRSFRKNLASTSSSKLGNESSHGGQINKSDDGEKQVETKKEGMFVKINMDGVPIGRKVDLNAYNSYEQLSFVVDKLFRGLLAAQRDISDGQGEEKPIIGLLDGKGEFTLTYEDNEGDKMLVGDVPWQMFVSSVKRLRVIKSSEISSALTFGCSKQEKMMH
B6: ARF1 538-665 (Arabidopsis thaliana, UniProt Q8L7G0); chain SRQIRSCTKVHMQGSAVGRAIDLTRSECYEDLFKKLEEMFDIKGELLESTKKWQVVYTDDEDDMMMVGDDPWNEFCGMVRKIFIYTPEEVKKLSPKNKLAVNARMQLKADAEENGNTEGRSSSMAGSR
Residues (chain): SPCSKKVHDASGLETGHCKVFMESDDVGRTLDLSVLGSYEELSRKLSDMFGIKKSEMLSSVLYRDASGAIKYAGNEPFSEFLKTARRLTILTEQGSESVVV
Sequence	positive tests
B1 (ARF8 699-811)	0
B2 (IAA29)	0
B3 (ARF12 500-593)	0
B4 (ARF2 727-859)	0
B5 (IAA26)	2
B6 (ARF1 538-665)	0

Set 3 — SMILES: COc1ccc(-c2cnc3c(-c4ccsc4)cnn3c2)cc1; effect on: enzyme activity; action: inhibitor; tested at: 0.5 µM; reference: control
target	remaining activity
Serine/threonine-protein kinase SIK2 (SIK2, Homo sapiens, UniProt Q9H0K1)	79.4%
Serine/threonine-protein kinase MARK1 (MARK1, Homo sapiens, UniProt Q9P0L2)	98.9%
Dual specificity protein kinase CLK2 (CLK2, Homo sapiens, UniProt P49760)	83.8%
Vascular endothelial growth factor receptor 1 (FLT1, Homo sapiens, UniProt P17948)	75.7%
Insulin-like growth factor 1 receptor (IGF1R, Homo sapiens, UniProt P08069)	91.3%
Serine/threonine-protein kinase PAK 5 (PAK5, Homo sapiens, UniProt Q9P286)	78.1%
Calcium/calmodulin-dependent protein kinase kinase 1 (CAMKK1, Homo sapiens, UniProt Q8N5S9)	79.2%
Tyrosine-protein kinase JAK1 (JAK1, Homo sapiens, UniProt P23458)	87%
Protein kinase C zeta type (PRKCZ, Homo sapiens, UniProt Q05513)	107%
Casein kinase I isoform epsilon (CSNK1E, Homo sapiens, UniProt P49674)	86.3%
Ribosomal protein S6 kinase alpha-3 (RPS6KA3, Homo sapiens, UniProt P51812)	83.6%
Ephrin type-B receptor 3 (EPHB3, Homo sapiens, UniProt P54753)	99.4%
Ephrin type-A receptor 2 (EPHA2, Homo sapiens, UniProt P29317)	95.9%
Dual specificity tyrosine-phosphorylation-regulated kinase 1A (DYRK1A, Homo sapiens, UniProt Q13627)	69.7%
Tyrosine-protein kinase receptor TYRO3 (TYRO3, Homo sapiens, UniProt Q06418)	91.8%
Cyclin-dependent kinase 2, with cyclin E (CDK2, Homo sapiens, UniProt P24941)	82.8%
Serine/threonine-protein kinase pim-1 (PIM1, Homo sapiens, UniProt P11309)	97.5%
Protein kinase C theta type (PRKCQ, Homo sapiens, UniProt Q04759)	98.7%
Tyrosine-protein kinase JAK2 (JAK2, Homo sapiens, UniProt O60674)	98.4%
Serine/threonine-protein kinase PAK 1 (PAK1, Homo sapiens, UniProt Q13153)	97%
Calcium/calmodulin-dependent protein kinase type 1 (CAMK1, Homo sapiens, UniProt Q14012)	104%
Serine/threonine-protein kinase PAK 4 (PAK4, Homo sapiens, UniProt O96013)	72.5%
Cyclin-dependent kinase 5, with p35 (CDK5, Homo sapiens, UniProt Q00535)	64.5%
Tyrosine-protein kinase Fes/Fps (FES, Homo sapiens, UniProt P07332)	98.2%
Tyrosine-protein kinase Yes (YES1, Homo sapiens, UniProt P07947)	67.7%

Set 4 — effect on: cell-free assay; technique: competition with immobilised ligand; tested at: 1 µM
SMILES: O=C1NC(c2ccccn2)Sc2ccccc21 (stereo not drawn)
target	remaining binding
Tyrosine-protein kinase JAK3, JH1 (JAK3, Homo sapiens, UniProt P52333)	100%
Tyrosine-protein kinase Tec (TEC, Homo sapiens, UniProt P42680)	75%
Receptor-interacting serine/threonine-protein kinase 4 (RIPK4, Homo sapiens, UniProt P57078)	72%
Serine/threonine-protein kinase Nek6 (NEK6, Homo sapiens, UniProt Q9HC98)	84%
Receptor-type tyrosine-protein kinase FLT3 (FLT3, Homo sapiens, UniProt P36888)	77%
Interferon-induced, double-stranded RNA-activated protein kinase (EIF2AK2, Homo sapiens, UniProt P19525)	91%
Vascular endothelial growth factor receptor 1 (FLT1, Homo sapiens, UniProt P17948)	100%
Receptor tyrosine-protein kinase erbB-4 (ERBB4, Homo sapiens, UniProt Q15303)	77%
Wee1-like protein kinase 2 (WEE2, Homo sapiens, UniProt P0C1S8)	85%

Set 5 — cell line: HaCaT; tested at: 100 µM; time: 18 h
SMILES	viability
CCOC(=O)c1ncn2c1CN(C)C(=O)c1cc(F)ccc1-2	112%
NC(=O)NS(=O)(=O)c1ccc(N)cc1	114%
CCOc1ccc2nc3cc(N)ccc3c(N)c2c1	42.6%
CO/N=C(\C(=O)N[C@@H]1C(=O)N2C(C(=O)O)=C(COC(C)=O)CS[C@H]12)c1csc(N)n1	107%
COC(=O)Nc1nc2ccc(Sc3ccccc3)cc2[nH]1	89.7%

Further values, each from its own experiment
Compound	tested on	assay	test system	setting	how to read	endpoint	value
COc1ccc(-c2c(Nc3ccccn3)[nH]c3c(C4=CCCCC4)c(-c4ccccc4)nn3c2=O)cc1	–	immunohistochemistry	human, tumour biopsy	oral, 50 mg once daily, cycle 1 day 28	direction not given	SDMA H-score	85 and 125 and 145
O=C(COc1ccccc1P(=O)(O)O)NCC(F)(F)c1cccc(F)c1	human islets	qPCR, measured: PIN1	–	concentration not given, unit not given, added: high glucose (20 mM)	reference: low glucose control	mRNA level	1.15 and 0.953 and 1.03 and 0.806
c1ccc2c(-c3nn4c(-c5ccncc5)nnc4s3)c[nH]c2c1	HEK293T ATF4-firefly luciferase reporter	integrated stress response, measured: ATF4	–	1 µM, without ISRIB	reference: DMSO	reporter signal	127% and 125% and 111% and 121% and 120% and 129% and 122%
CCOC(=O)[C@@H]1CSCC(=O)N[C@@H](CC)C(=O)N(C)[C@@H](C)C(=O)N[C@H](CC(C)C)C(=O)N2CCC[C@H]2C(=O)N(CC(C)C)CC(=O)N[C@H](CC(C)C)C(=O)N(C)[C@@H](C)C(=O)N[C@@H](CC(C)C)C(=O)N1C	–	–	hydrocarbon/water	–	–	logD	2.38

For quick reference, copied from above (set 5):
SMILES	viability
CCOC(=O)c1ncn2c1CN(C)C(=O)c1cc(F)ccc1-2	112%
NC(=O)NS(=O)(=O)c1ccc(N)cc1	114%
CCOc1ccc2nc3cc(N)ccc3c(N)c2c1	42.6%
CO/N=C(\C(=O)N[C@@H]1C(=O)N2C(C(=O)O)=C(COC(C)=O)CS[C@H]12)c1csc(N)n1	107%
